Results pooled from the literature.
Numbered parts are unrelated; each lists some results of a single study.

Series 1
Target: Ras GTPase-activating protein-binding protein 1, full length (G3BP1, Homo sapiens, UniProt Q13283)
Sequence of UniProt Q13283 (whole entry, looked up): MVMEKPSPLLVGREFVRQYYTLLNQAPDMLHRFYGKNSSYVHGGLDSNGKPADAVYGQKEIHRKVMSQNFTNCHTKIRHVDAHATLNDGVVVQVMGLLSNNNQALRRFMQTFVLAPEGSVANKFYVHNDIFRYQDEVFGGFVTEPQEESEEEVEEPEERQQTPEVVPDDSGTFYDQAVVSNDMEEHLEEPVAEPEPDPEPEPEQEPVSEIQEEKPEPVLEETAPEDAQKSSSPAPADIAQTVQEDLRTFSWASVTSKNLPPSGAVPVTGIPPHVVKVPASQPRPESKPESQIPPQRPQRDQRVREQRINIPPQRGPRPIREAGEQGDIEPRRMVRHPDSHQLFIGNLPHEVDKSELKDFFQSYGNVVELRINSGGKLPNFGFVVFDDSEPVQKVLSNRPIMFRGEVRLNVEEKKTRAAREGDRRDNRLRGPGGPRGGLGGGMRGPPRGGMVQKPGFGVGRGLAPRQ
Technique: RNA Bind-n-Seq
Form: RNA
Matrix: in vitro
Concentration: 200 nM
Setting: whole 134-nt RNA, ends assumed
Together with: 150 mM KCl
Baseline: input library
Direction: higher = stronger binding
| Sequence | log2 enrichment |
| --- | --- |
| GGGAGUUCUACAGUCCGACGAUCUAACUUUAGAGGAGGAUCUGAUGGAUAUGGCAGUGGACGUGGAUUUGGGGAUGGCUAUACUGGGUAUGGAGGAGGACCUGGAGGUGGCAAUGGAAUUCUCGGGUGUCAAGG | 0.363 |
| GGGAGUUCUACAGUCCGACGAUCUCCUCAAGUCCUGUGCUACACAUCGUAUGUACCGAAUCGGGGUGGUGGUGGGAAAGUAUUAUGUUACGCCGUUCGGAUCUGCACUUCCAGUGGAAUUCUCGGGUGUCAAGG | 0.545 |
| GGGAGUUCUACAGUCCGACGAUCCACAGACAACACGCACCCACACAGACACAGAGGGAAGGGGUUGGGAUGGGGACAGGGCGCACAGCAGGGCGGGGUAGGACCCCAGCCCCUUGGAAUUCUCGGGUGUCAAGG | 1.75 |
| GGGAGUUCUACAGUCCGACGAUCGCAGGAAGUAAAAACAAAUGGAAAUGCUUCGGAUAGUGGCAGGGGUGGGGGUUGCUAAGGAAAGGGUGGGAUGGGAGUGGAAAAAGAGUUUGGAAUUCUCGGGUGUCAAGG | 0.802 |
| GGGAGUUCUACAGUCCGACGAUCUCCUGUGCUACACAUCGUAUGUACCGAAUCGGGGAGGGGUUUUUUUGGGGUUUUUGGGGAAAGUAUUAUGUUACGCCGUUCGGAUCUGCAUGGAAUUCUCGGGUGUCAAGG | 0.594 |
| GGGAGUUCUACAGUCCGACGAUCGUCCUGUGCUACACAUCGUAUGUACCGAAUCGGGAAAGGGUUUUUUUGGGUUUUUGGGAAAGUAUUAUGUUACGCCGUUCGGAUCUGCACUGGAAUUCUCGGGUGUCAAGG | -0.495 |

Series 2
Target: Transcriptional repressor CTCF (CTCF, Homo sapiens, UniProt P49711, residues 1-727, full length assumed)
Sequence of UniProt P49711 (whole entry, looked up): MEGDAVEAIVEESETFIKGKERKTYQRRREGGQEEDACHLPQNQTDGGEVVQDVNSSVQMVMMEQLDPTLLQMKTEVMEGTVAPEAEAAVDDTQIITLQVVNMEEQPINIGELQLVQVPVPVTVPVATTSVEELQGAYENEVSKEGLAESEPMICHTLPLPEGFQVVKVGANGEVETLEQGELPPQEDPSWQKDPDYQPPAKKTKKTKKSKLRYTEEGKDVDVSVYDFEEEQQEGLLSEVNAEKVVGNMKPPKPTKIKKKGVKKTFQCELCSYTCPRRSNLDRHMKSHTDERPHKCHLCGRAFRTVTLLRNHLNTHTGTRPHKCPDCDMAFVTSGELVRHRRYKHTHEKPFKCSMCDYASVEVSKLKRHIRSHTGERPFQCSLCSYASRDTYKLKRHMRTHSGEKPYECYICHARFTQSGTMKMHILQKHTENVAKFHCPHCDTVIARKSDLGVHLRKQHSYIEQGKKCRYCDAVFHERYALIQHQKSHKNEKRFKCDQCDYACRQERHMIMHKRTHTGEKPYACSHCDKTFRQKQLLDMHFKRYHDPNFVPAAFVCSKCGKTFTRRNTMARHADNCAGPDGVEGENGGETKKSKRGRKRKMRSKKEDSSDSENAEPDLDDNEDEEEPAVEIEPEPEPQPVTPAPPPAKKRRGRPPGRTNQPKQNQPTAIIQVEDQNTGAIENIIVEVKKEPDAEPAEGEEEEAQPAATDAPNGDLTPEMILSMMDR
Technique: protein-binding microarray
Form: double-stranded DNA, one strand shown
Matrix: in vitro
Concentration: not given
Setting: k-mer, scored over probes, only values ≥0.25
Direction: higher = stronger binding
| Sequence | E-score |
| --- | --- |
| TGTATTAA | 0.361 |
| AAAATATG | 0.266 |
| CACATGTA | 0.267 |
| AATATTAT | 0.353 |
| AACAAAAA | 0.29 |
| TAAAACTA | 0.306 |
| AAAAATAA | 0.259 |
| GTTGCGCA | 0.312 |

Series 3
Target: Sal-like protein 4, full length isoform A (SALL4, Homo sapiens, UniProt Q9UJQ4, residues 1-1053)
Sequence of UniProt Q9UJQ4 (whole entry, looked up): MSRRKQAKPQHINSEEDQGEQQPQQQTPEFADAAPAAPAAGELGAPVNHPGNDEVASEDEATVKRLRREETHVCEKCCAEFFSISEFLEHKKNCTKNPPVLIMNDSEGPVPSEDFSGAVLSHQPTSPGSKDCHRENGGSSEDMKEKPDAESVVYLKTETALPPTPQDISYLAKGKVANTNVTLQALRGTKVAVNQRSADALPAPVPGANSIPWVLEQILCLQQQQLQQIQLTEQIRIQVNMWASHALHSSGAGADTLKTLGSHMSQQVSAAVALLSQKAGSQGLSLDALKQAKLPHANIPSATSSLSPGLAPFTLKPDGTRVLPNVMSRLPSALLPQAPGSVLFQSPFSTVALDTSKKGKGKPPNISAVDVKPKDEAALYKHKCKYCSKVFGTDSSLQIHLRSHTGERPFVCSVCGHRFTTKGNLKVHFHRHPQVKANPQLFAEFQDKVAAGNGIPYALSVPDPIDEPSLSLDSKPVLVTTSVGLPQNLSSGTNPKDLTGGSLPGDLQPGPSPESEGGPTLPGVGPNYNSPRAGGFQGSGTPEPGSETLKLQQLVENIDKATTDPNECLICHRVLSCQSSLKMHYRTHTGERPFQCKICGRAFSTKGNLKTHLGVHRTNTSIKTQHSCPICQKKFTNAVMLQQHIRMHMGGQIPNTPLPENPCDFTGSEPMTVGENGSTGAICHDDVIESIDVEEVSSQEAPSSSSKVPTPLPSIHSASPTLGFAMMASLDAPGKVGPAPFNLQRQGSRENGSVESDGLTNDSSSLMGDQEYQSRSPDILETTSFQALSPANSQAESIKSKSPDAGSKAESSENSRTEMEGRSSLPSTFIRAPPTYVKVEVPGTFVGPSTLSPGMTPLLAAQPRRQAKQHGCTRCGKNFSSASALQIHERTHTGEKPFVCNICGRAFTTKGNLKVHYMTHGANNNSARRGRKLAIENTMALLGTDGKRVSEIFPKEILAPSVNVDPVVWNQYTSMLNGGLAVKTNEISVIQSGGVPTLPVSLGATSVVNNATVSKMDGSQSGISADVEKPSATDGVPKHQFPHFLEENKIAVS
Technique: universal PBM
Form: double-stranded DNA, one strand shown
Matrix: in vitro
Concentration: 600 nM
Setting: 8-mer, flanks averaged, mean of replicates
Direction: higher = stronger binding
| Sequence | E-score |
| --- | --- |
| AGACTGGA | -0.108 |
| CTGGAGTC | -0.239 |
| CGCGTGGA | -0.291 |
| AGCGGCAA | -0.163 |
| CTCTCATC | -0.101 |
| CTTGACGA | -0.103 |
| ATCGCCAG | -0.113 |
| AGATCTTA | 0.0823 |
| GAGCCCCC | -0.372 |
| ATCTCCTC | -0.0617 |

Other studies, line by line
| Molecule | target | test | test system | conditions | scale | quantity | result |
| --- | --- | --- | --- | --- | --- | --- | --- |
| PhoQ, residues 284 288 289 292 302 303 TASMAF | PhoP, residues 12 14 15 18 19 GQALL (Escherichia coli, UniProt P23836) | Sort-seq, measured: YFP reporter | E. coli | PhoQ-PhoP variant library, together with: 10 µM Mg2+ | baseline: high Mg2+ state, higher = stronger signaling | fold induction | 19.8 |

Some of these lines once more (series 1):
| Sequence | log2 enrichment |
| --- | --- |
| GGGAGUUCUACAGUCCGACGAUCUCCUCAAGUCCUGUGCUACACAUCGUAUGUACCGAAUCGGGGUGGUGGUGGGAAAGUAUUAUGUUACGCCGUUCGGAUCUGCACUUCCAGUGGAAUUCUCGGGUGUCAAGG | 0.545 |
